Published values gathered from unrelated publications.
Numbered parts are unrelated; each lists some results of a single study.

Set 1 — technique: universal PBM; molecule type: double-stranded DNA, one strand shown; medium: in vitro; tested at: 600 nM; reading: higher = stronger binding; measurement: E-score
Target: Sal-like protein 4, full length isoform A (SALL4, Homo sapiens, UniProt Q9UJQ4, residues 1-1053)
Sequence of UniProt Q9UJQ4 (whole entry, looked up): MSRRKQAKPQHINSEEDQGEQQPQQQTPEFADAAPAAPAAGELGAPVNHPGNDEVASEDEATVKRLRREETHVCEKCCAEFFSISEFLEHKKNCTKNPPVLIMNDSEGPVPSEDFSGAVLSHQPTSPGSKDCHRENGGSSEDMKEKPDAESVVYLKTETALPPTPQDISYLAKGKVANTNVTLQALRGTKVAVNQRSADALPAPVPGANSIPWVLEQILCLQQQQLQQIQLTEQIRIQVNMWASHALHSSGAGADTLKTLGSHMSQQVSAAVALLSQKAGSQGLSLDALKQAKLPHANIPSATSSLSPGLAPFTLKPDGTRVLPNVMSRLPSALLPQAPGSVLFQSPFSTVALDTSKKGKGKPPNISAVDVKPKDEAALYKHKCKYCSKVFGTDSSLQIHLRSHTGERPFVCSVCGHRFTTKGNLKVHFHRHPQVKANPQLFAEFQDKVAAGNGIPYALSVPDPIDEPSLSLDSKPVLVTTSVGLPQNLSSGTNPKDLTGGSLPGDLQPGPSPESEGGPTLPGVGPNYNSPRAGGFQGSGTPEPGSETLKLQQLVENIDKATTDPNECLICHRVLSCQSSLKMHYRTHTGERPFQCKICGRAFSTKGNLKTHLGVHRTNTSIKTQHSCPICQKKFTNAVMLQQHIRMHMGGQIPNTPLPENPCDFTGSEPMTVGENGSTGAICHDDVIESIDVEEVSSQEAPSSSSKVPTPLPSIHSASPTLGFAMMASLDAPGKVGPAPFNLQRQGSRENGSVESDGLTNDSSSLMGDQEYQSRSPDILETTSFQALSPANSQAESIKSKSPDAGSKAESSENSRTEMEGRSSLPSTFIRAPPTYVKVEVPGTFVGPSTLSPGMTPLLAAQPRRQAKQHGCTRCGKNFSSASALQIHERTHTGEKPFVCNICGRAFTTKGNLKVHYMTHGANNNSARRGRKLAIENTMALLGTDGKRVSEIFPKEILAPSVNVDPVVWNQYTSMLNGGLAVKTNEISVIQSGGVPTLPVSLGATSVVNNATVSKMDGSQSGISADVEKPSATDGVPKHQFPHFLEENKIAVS
Setting: 8-mer, flanks averaged, mean of replicates
Oligonucleotide = AGGAGTCC; result = -0.26
Oligonucleotide = CTCTCTAA; result = -0.0821
Oligonucleotide = TCAGACAA; result = 0.043
Oligonucleotide = CCAAGATC; result = -0.0866
Oligonucleotide = GGGACTGA; result = -0.234
Oligonucleotide = GTAGAGAC; result = -0.0347
Oligonucleotide = CCAGGCGC; result = -0.429
Oligonucleotide = AATGATCT; result = 0.203
Oligonucleotide = GACGAGGA; result = -0.0688
Oligonucleotide = CGATGAAG; result = 0.16
Oligonucleotide = ATGATACC; result = 0.174
Oligonucleotide = CCTGCCCC; result = -0.323
Oligonucleotide = TCTGTTCA; result = 0.0156
Oligonucleotide = AGAGTGAG; result = 0.0633
Oligonucleotide = CCATTTTC; result = 0.183
Oligonucleotide = CCTGAAGA; result = -0.148
Oligonucleotide = ACGTGTAC; result = -0.0192
Oligonucleotide = GAGGCTAC; result = -0.336
Oligonucleotide = CCGCGACG; result = -0.319
Oligonucleotide = GGGCTAGA; result = -0.165

Set 2 — technique: protein-binding microarray; molecule type: double-stranded DNA, one strand shown; medium: in vitro; tested at: 250 nM; setting: 60-bp whole probe; added: salmon DNA 0.4 mg/ml; baseline: random background probes; reading: higher = stronger binding; measurement: log fluorescence; shared flanks, not repeated: GCCTAGCAC … GTCTTGATTCGCTTGACGCTGCTG
Target: Interferon regulatory factor 5, full length, phosphomimetic (IRF5, Homo sapiens, UniProt Q13568-2, residues 1-514, K96S/S451D/S453D/S456D/S462D)
Oligonucleotide = TGATTGGTTGAACATGAACTGTGCTAG; result = -0.132 z-score
Oligonucleotide = TTAGATATCAGTATCCATTAGTGCTAG; result = 1.59 z-score
Oligonucleotide = GACGACCTGAGTCTCGAGACGTGCTAG; result = -0.426 z-score
Oligonucleotide = TTTGCTTTACTGATGGCCCTGTGCTAG; result = 0.305 z-score
Oligonucleotide = GACGAAATCGGGTATCGAGACGTGCTA; result = 1.81 z-score
Oligonucleotide = GACGGTCTCGGTATCGGGCCGTGCTAG; result = 0.821 z-score
Oligonucleotide = GACGATTTCGGGCTTCGAGACGTGCTA; result = 1.79 z-score
Oligonucleotide = GGCGATATCAGACTGGAGACGTGCTAG; result = 0.073 z-score
Oligonucleotide = TTAAGTTTCGGGTATCGGTTAGTGCTA; result = 10.3 z-score
Oligonucleotide = GACGGTCTCCTAATCCTGACGTGCTAG; result = -0.239 z-score
Oligonucleotide = TTAGATCTCAGTCTCCATTAGTGCTAG; result = 0.345 z-score
Oligonucleotide = TCAACTTTCCACTTGTCACTGTGCTAG; result = 1.3 z-score
Oligonucleotide = GACGGTTTTGACTTTCGGGACGTGCTA; result = 5.75 z-score
Oligonucleotide = TTAGATCACAGTATCGATTAGTGCTAG; result = 6.22 z-score
Oligonucleotide = TTAGGACTGGATACTGGGTTAGTGCTA; result = -0.108 z-score
Oligonucleotide = GACTGTATCCTACTGCTGACGTGCTAG; result = -0.0428 z-score
Oligonucleotide = GACGGAATGGGACTGGGGACGTGCTAG; result = -0.556 z-score
Oligonucleotide = ATATATATCATTTAATTATAGTGCTAG; result = 1.71 z-score
Oligonucleotide = TTAGGTCTCAGTATCGGTTAGTGCTAG; result = 6.5 z-score
Oligonucleotide = TTAGATATCAGTCTGGATTAGTGCTAG; result = 1.2 z-score
Oligonucleotide = TTAGGACTGAGACTGGGTTAGTGCTAG; result = -0.463 z-score
Oligonucleotide = TTAGGTATCCGGTTTCGGTTAGTGCTA; result = 8.34 z-score
Oligonucleotide = TGAGATATCAGTTTCGATTAGTGCTAG; result = 9.72 z-score
Oligonucleotide = TTAGAACTGGGTTATCGATTAGTGCTA; result = 2.15 z-score
Oligonucleotide = TCAATGTTCCCTATTTAACTGTGCTAG; result = 0.626 z-score

Set 3 — technique: aptamer microarray, sandwich; molecule type: DNA with 2'F-ANA; medium: in vitro; tested at: 200 nM; added: Cy3 exosite-II aptamer, 400 nM; reading: higher = stronger binding; measurement: mean fluorescence intensity; oligonucleotide: GGTTGGTGTGGTTGG
Target: Prothrombin, mature alpha-thrombin (F2, Homo sapiens, UniProt P00734)
Setting: whole 15-mer aptamer, many near background
Modification = 2'F-ANA at 3 4 5 6 7 8 9 12 14 15; result = 63.3 a.u.
Modification = 2'F-ANA at 2 3 6 9 11 14 15; result = 319 a.u.
Modification = 2'F-ANA at 1 3 4 6 8 9 11 15; result = 158 a.u.
Modification = 2'F-ANA at 3 4 5 9 10 11 12 13 14 15; result = 55.8 a.u.
Modification = 2'F-ANA at 1 2 3 5 8 10 11 14; result = 49.3 a.u.
Modification = 2'F-ANA at 3 4 6 7 9 10 12; result = 364 a.u.
Modification = 2'F-ANA at 1 2 6 9 13 15; result = 105 a.u.
Modification = 2'F-ANA at 1 6 7 8 11 12 13 15; result = 291 a.u.
Modification = 2'F-ANA at 1 2 4 5 6 9 13 14 15; result = 46.8 a.u.
Modification = 2'F-ANA at 1 4 7 8 15; result = 186 a.u.
Modification = 2'F-ANA at 1 3 5 6 8 10 14 15; result = 51.2 a.u.
Modification = 2'F-ANA at 1 2 4 8 9 10 11 15; result = 53.6 a.u.
Modification = 2'F-ANA at 3 5 7 8 9 11 12 14 15; result = 64.3 a.u.
Modification = 2'F-ANA at 4 6 9 10 13 15; result = 68.3 a.u.
Modification = 2'F-ANA at 4 7 9 10 15; result = 141 a.u.
Modification = 2'F-ANA at 1 3 5 7 8 12 14; result = 47.5 a.u.
Modification = 2'F-ANA at 2 3 5 12 13 14 15; result = 57.3 a.u.
Modification = 2'F-ANA at 4 7 8 11 13; result = 267 a.u.
Modification = 2'F-ANA at 2 3 6 8 9 10 13 15; result = 252 a.u.

Set 4 — technique: RNA Bind-n-Seq; molecule type: RNA; medium: in vitro; tested at: 200 nM; setting: whole 134-nt RNA, ends assumed; added: 150 mM LiCl; baseline: input library; reading: higher = stronger binding; measurement: log2 enrichment; each molecule: 7-deaza-guanosine replaces G
Target: Fragile X messenger ribonucleoprotein 1, C-terminal low-complexity region (Fmr1, Mus musculus, UniProt P35922)
Shared flanks, not repeated: GGGAGUUCUACAGUCCGACGAUC … UGGAAUUCUCGGGUGUCAAGG
Oligonucleotide = UCCUGUGCUACACAUCGUAUGUACCGAAUCGGGGUUUGGGGAAAAAAAGGGGAAAGGGGAAAGUAUUAUGUUACGCCGUUCGGAUCUGCA; result = -0.544
Oligonucleotide = UAUAUUGAGGUAUAGAGCUAUUCUUUGUAGGUACCCUGGUGAGACCGAUACAAAUAUGCCCCUCCCCAUAAUGGAAUACUAAUUUUUAUU; result = 1.04
Oligonucleotide = UCCUGUGCUACACAUCGUAUGUACCGAAUCGGGAAAAAGGGGAAAAAGGGGAAAAAGGGGAAAGUAUUAUGUUACGCCGUUCGGAUCUGC; result = -0.407
Oligonucleotide = UCCUGUGCUACACAUCGUAUGUACCGAAUCGGGGAAAAAAAGGGGUUUGGGGAAAGGGGAAAGUAUUAUGUUACGCCGUUCGGAUCUGCA; result = -1.47
Oligonucleotide = UGUCCAGCUCUGAAGGGCAAAGUGCAGAAGAUCCUAAUCUGGAAGUGGGGUCAGCCACCAUCUCCCACACCAGUGCCUCGGCCUCCAGAU; result = 0.717
Oligonucleotide = UUUUUUGUAGUAGGGAGAUCCUUGAUCAUCAGGAUGGUAAUGUAGAAGAUGAUGGGCUUACAGGACUCCUAAGGCUUGCAACAAGUGUUG; result = -0.385
Oligonucleotide = UAACUUUAGAGGAGGAUCUGAUGGAUAUGGCAGUGGACGUGGAUAUGGGGAUGGCUAUAAUGGGUAUGGAGGAGGACCUGGAGGUGGCAA; result = 0.529
Oligonucleotide = UUGACUAUAUUGUGGAGUAUGACUAUGAUGCUGUACAUGAUGAUGAAUUAACUAUUCGAGUUGGAGAAAUCAUCAGGAAUGUGAAAAAGC; result = -2.62
Oligonucleotide = CCUGUGCUACACAUCGUAUGUACCGAAUCAAAUUUUUUUAAACCCCCAAACCCCCCCAAAAAAGUAUUAUGUUACGCCGUUCGGAUCUGC; result = 1.39
Oligonucleotide = AGUCCUGUGCUACACAUCGUAUGUACCGAAUCAAACCCCCAAACCCAAACCCCCAAAAAAGUAUUAUGUUACGCCGUUCGGAUCUGCACU; result = -0.298
Oligonucleotide = CCUCAAGUCCUGUGCUACACAUCGUAUGUACCGAAUCGGUUUUUGGAGGAGGAAAGUAUUAUGUUACGCCGUUCGGAUCUGCACUUCCAG; result = -0.455

Set 5 — technique: RNA Bind-n-Seq; molecule type: RNA; medium: in vitro; tested at: 365 nM; baseline: no-protein control; reading: higher = stronger binding; measurement: RBNS enrichment (R)
Target: RNA binding protein fox-1 homolog 2, RRM domain, GST-SBP tag (RBFOX2, Homo sapiens, UniProt O43251-10, residues 100-194)
Setting: natural RNA segment, single round, ends assumed
Shared flanks, not repeated: GGGAGUUCUACAGUCCGACGAUC … UGGAAUUCUCGGGUGCCAA
Residues (chain): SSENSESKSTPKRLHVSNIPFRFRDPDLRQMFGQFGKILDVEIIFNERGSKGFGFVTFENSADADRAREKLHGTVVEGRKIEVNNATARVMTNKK
Oligonucleotide = ACUGUCCAAAGAUUAGGGUUGGUGGUGGCAGUGCAGCAGGGGAGGGACAAACAACCAAGCUAUGGGUGACAGAGGCUCUCUCCUGGUGCCUGCACCUGCACUCUAGUGAC; result = 0.271
Oligonucleotide = UUAACUCAUUAGUAUCAUAAACGUCAAGGAUUGAUUGGACCAGGCAAGAGCCAUGUUUUUGAGAAGGUUCUGGAUCUCUGACUCCAUCCUGACUGUUUAGUAAGAGCAUG; result = 1.03
Oligonucleotide = CUGGCCUGGCCAGCAGUCUGCAUGCUGAAGCUGCACCAAAGACAAGCGAAUGGGUCAUUUCUAAAGAGACCAGGGAGCCCACUCCUCAUGGGCUCUCCGUGGUGAAGAAC; result = 13.8
Oligonucleotide = CUCUUCCACAGUUAACCAGGUCUCCACCAGGGCUUUCUUUCCAUGUGUUUUUCUUCUUGUUGUUUUAGAACUUUUUCAAAAACAAACAAGACAAACAAACAUAAAAAUAG; result = 0.405
Oligonucleotide = ACAGUGCUACUUCUAAGUGAUGUUUAUUUUCUGUACCUGAAAUGGUUGCAAUUUAGAGAUGUUCCAAUUCCAAGAAACUUCGUUUUACUUUACCAAGAAAAAUCCUGUCU; result = 0.658
Oligonucleotide = UCUGUACCCUGAUCUGGCAUAUAGCUUCAAAACUGCAGUGGCGAGUGUCCAUCUCUUAGUUAGCUACCUUAACUGUCCACCCUUACUACCUGUGGGAUCGUUGCCUGGUU; result = 0.413
Oligonucleotide = ACUGUUGCGGAGAGCUCUGAUGGGAACUGUGCAACAUGGAGCGUGGAGCCUGCCGAUCCUAGCUCAGAGAGGCUGCCUUCAUGGCCUGUUACUCCAGCUAACGCUUUGAU; result = 0.262
Oligonucleotide = AAUAGUAUGCUCUUUGCUUUGGAAUCUCUAAUUUACGGUCAUGCCCUAAGUCACAGGAUGAUUAUUAGGGAAAUGUCAUUGACACCUGAAAAUUACCUAUCCUGUAAAAA; result = 0.327
Oligonucleotide = UUUUUAUAAGGAAAUGUUGGAGAGUUACAUCAUUGCUAAUGUAGAAAUGUUAAGUGGAAAAAUAUACAGUUUGGUAAAAUAAACUAGAUUCUACAUUUAUUUGUGGGUUU; result = 0.601
Oligonucleotide = UGCCAAAAACAAGAGGAGGAAACUGGCCCCAUACAGCCAUACCUGGAGCUGGAUCUGACCCUGAUUGGGGAGAGCUGAGUGCUGAGCCUUGGGAGCCCCUGCCAGCCACC; result = 0.456
Oligonucleotide = AGUCCUGGCCCUGGCCCUUACUAUUAGGAAAAUAAACAGACAAAAACAAGUAAAUAUAUAUGGUCAUAUACAUAUUGUAUAUAUAUUCAUAUACAAACAUGUAUGUAUAC; result = 0.526
Oligonucleotide = UGCCUCAGGGCCUGGCCCUCCUGCAUGCUAUGCCCGGGGCAGGCCUGACGGGCAGCUGAGGAUUGCAGAGCCUGUCUGCCUUACGGCCAGUCGGACAGACGUCCCGCCAC; result = 1.92

For quick reference, copied from above (set 1):
Oligonucleotide = GACGAGGA; result = -0.0688
Oligonucleotide = CGATGAAG; result = 0.16
Oligonucleotide = ATGATACC; result = 0.174
Oligonucleotide = CCTGCCCC; result = -0.323
Oligonucleotide = TCTGTTCA; result = 0.0156
Oligonucleotide = AGAGTGAG; result = 0.0633
Oligonucleotide = CCATTTTC; result = 0.183
